Measurements collected from several papers.
Each numbered part is a random draw from the data of one study; scales do not carry over between parts.

Set 1 — technique: RNA Bind-n-Seq; molecule type: RNA; matrix: in vitro; concentration: 365 nM; reference: no-protein control; reading: higher = stronger binding
Target: RNA binding protein fox-1 homolog 2, RRM domain, GST-SBP tag (RBFOX2, Homo sapiens, UniProt O43251-10, residues 100-194)
Notes: natural RNA segment, single round, ends assumed
Constant ends, left off below: GGGAGUUCUACAGUCCGACGAUC … UGGAAUUCUCGGGUGCCAA
Target sequence (chain): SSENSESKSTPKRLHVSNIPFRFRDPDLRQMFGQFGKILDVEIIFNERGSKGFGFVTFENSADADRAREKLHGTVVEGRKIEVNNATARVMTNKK
| Oligonucleotide | RBNS enrichment (R) |
| --- | --- |
| AAAUAUUUCAGUAAUUUUGGAGUGGAAGUUGGGUUGCUAACAUCAGAGCUCAUGUUCAUGUUUUAGAAGCCCUUUCUUUCUAGGUGUCUCUCAAAAGACUGGCUUAAUUG | 0.377 |
| AUCUGGUCAAGUGGCGGGCCUUACUCUGGAAGGAGGCCUCAGAGGUUUCUCCACAGUCCUCUUCUGGGCAAAUUCUUGUUUCUUCACAUGCUGGACUAGCUUAAGACCAA | 0.181 |
| AAAGAAUAAAAAUUGACUUCUUGCUUGUACAUAUAGGAGCAAUACUAUUAUAUUAUGUAGUCCGUUAACACUACUUAAAAGUUUAGGGUUUUCUCUUGGUUGUAGAGUGG | 2.53 |
| UUAACACAGCCUUCCUUCUGCUCCCACCCCAGAAAUCACUGUGAAAUUUCAUGAUUGGCUUAAAGUGAAGGAAAUAAAGGUAAAAUCACUUCAGAUCUCUAAUUAGUCUA | 0.349 |
| AAGGCCACACCACUUCCGCUGUGUAUCAGUCUAUCAUACACUCCGCACGGUCACAUGAUCACUUCACUUCUCGAUGGCUAUUGCAGACCAAGACUGCAGUCAAGAAGGGA | 0.282 |
| UCUCAUGAAUAUUCUUUAAGUGCUAUUUAAACCUCCCCAGCACUUAGAUGCAUAUAAUGGACUUACCUGAGGAAAGACAGCACAUAGGCAUGGGGAGAGGUAACCAAGGU | 0.724 |
| AUUUGUUUUAAGAGAUAGAACUCUAUUUUUUUGAACUUCCAGAGAAUUGCAUUCAUGGCUUCCACUUGUAAAUAUGCUAAGGGUAUUUUAAUAAAUCUUGGUUUCAUGUC | 0.634 |
| CAGCAGCUCAUCGACGACCACUUCCUCUUCGACAAGCCCGUGUCGCCCCUGCUGCUGGCCUCGGGCAUGGCCCGCGACUGGCCCGACGCCCGCGGUAUCUGGCACAAUGA | 0.343 |
| CACAGUGUCAGAGACGCGUCCUCUUUCUUGGGGAAGUUGAGGAGUGCCCUUCAGAGCCAGUAGCAGGCAGGGGUGGGUAGGCACCCUCCUUCCUGUUUUUAUCUAAUAAA | 0.577 |
| GCUUCAAACUGUUUUAAUCAUCAAACCAAGUCACUGUUCAUUUUCAUCUUCUUGUACAGUUUUUGUUUGGGUAAUGAUCACAGCAAUCCUUACACAUUUUAUGUAAACUC | 0.349 |
| GGGGCCUGGCAGCCAUGGAGAAGGCUGAGAGGCAGAAGGACACGGGGUCUUCCUGCCUCACCACCUUGCUGUGCAUGAUGAUGCUGACCCACCCCCUUUACCUCCCUUCC | 5.48 |
| UUUUUCACUAAGAAUUUAGUUAAAUUGUCUUUACUAUACAGCAAGAAAUCUCUUUAGAAGAAACUUUAUGAGUUUAUAAAUGAGAAAACCUUUCAGCAGUUAUGUAGCCU | 0.428 |

Set 2 — technique: RNA Bind-n-Seq; molecule type: RNA; matrix: in vitro; concentration: 200 nM; notes: whole 134-nt RNA, ends assumed; with: 150 mM KCl; reference: input library; reading: higher = stronger binding
Target: Ras GTPase-activating protein-binding protein 1, full length (G3BP1, Homo sapiens, UniProt Q13283)
Chain of UniProt Q13283 (whole entry, looked up): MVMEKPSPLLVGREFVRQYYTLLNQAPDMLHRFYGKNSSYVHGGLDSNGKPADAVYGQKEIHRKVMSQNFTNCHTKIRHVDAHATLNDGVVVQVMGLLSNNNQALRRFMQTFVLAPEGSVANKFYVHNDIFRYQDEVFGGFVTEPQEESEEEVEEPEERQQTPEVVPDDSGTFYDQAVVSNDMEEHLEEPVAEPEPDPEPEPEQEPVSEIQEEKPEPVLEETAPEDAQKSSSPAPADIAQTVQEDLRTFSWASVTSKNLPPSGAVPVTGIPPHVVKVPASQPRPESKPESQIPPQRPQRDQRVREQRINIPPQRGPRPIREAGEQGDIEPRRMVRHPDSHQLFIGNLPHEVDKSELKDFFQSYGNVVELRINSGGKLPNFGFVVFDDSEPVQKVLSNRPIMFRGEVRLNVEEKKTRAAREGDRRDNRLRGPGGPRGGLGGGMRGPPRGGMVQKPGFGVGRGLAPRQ
Constant ends, left off below: GGGAGUUCUACAGUCCGACGAUC … UGGAAUUCUCGGGUGUCAAGG
| Oligonucleotide | log2 enrichment |
| --- | --- |
| GCAGGAAGUAAAAACAAAUGGAAAUGCUUAAAAUAGUGGCAGGGGUGGGGGUUGCUAAGGAAAGGGUGGGAUGGGAGUGGGUAAAGAGUU | 1.2 |
| UCAAGUCCUGUGCUACACAUCGUAUGUACCGAAUCGGGUUGGGGUUGGGUUGGGGAAAGUAUUAUGUUACGCCGUUCGGAUCUGCACUUC | 1.02 |
| CUCAAGUCCUGUGCUACACAUCGUAUGUACCGAAUCGGAAAGGUGGUUUUUGGAAAGUAUUAUGUUACGCCGUUCGGAUCUGCACUUCCA | -0.652 |
| CACAGACAACACGCACCCACACAGACACAGAGGGCAGGGGUUGGGAUGGGGACAGGGUGCACAGCAGGGCGGGGUAGGACCCCAGCCCCU | 1.87 |
| CAAGUCCUGUGCUACACAUCGUAUGUACCGAAUCGGGUUUGGGUGGGAAAAAGGGAAAGUAUUAUGUUACGCCGUUCGGAUCUGCACUUC | 0.762 |
| UUUAGCCUGUGGAAUGAUAGCAGUAGGGUCCUGCAAUGGAGAUGUAACUUCCACUAUCCUUCAGACCAUCAUGGAGAAGUCAGAGACUGA | -0.675 |
| UUUUAUGUGGAGUUAUGAAGACCUACAGGCAGAGAGAGAAACAGGGGAGCAAGGUGCAAGAGUCCACAAAGGGACCUGAUGAAGCGAAGA | 0.052 |
| GUCCUGUGCUACACAUCGUAUGUACCGAAUCGGGGCCCCCGGCCCCCGGGGCCCCCGGAAAGUAUUAUGUUACGCCGUUCGGAUCUGCAC | -0.9 |
| AAGUCCUGUGCUACACAUCGUAUGUACCGAAUCGGGUUUGGGUUUGGGAAAAAGGGAAAGUAUUAUGUUACGCCGUUCGGAUCUGCACUU | 0.177 |
| CUGUGCUACACAUCGUAUGUACCGAAUCGGGGUUUUUUUGGGUUUUUUUGGGUUUUUUUGGGAAAGUAUUAUGUUACGCCGUUCGGAUCU | -0.914 |
| CAAGUCCUGUGCUACACAUCGUAUGUACCGAAUCGGGUUUUUGGGAGGGUUUGGGAAAGUAUUAUGUUACGCCGUUCGGAUCUGCACUUC | 0.336 |
| AGUCCUGUGCUACACAUCGUAUGUACCGAAUCGGGUUUUUGGGUUUGGGAAAAAGGGAAAGUAUUAUGUUACGCCGUUCGGAUCUGCACU | -0.445 |
| UAACUUUAGAGGAGGAUCUGAUGGAUAUGGCAGUGGACGUGCAUUUGGGGAUGGCUAUAAUGGGUAUGGAGGAGGACCUGGAGGUGGCAA | 0.0413 |
| CAAGUCCUGUGCUACACAUCGUAUGUACCGAAUCGGGGUUUGGGGAGGGGUGGGGAAAGUAUUAUGUUACGCCGUUCGGAUCUGCACUUC | 1.37 |

Set 3 — technique: protein-binding microarray; molecule type: double-stranded DNA, one strand shown; matrix: in vitro; concentration: 250 nM; notes: 60-bp whole probe; with: salmon DNA 0.4 mg/ml; reference: random background probes; reading: higher = stronger binding; constant ends, left off below: GCCTAGCAC … GTCTTGATTCGCTTGACGCTGCTG
Target: Interferon regulatory factor 5, full length, phosphomimetic (IRF5, Homo sapiens, UniProt Q13568-2, residues 1-514, K96S/S451D/S453D/S456D/S462D)
| Oligonucleotide | log fluorescence [z-score] |
| --- | --- |
| GACGGTTTCGGTTACGGGACGTGCTAG | 9.4 |
| GACGGACGGCTTTTCCTGACGTGCTAG | -0.65 |
| GACGGACTGGACTTTCTGGACGTGCTA | 0.13 |
| TTAGCTCTCCTTCTCCTTTAGTGCTAG | -0.0239 |
| TCAACCATCCTGTGTCTTACTGTGCTA | 0.075 |
| TTAGGTATCCTACTCCTTTAGTGCTAG | -0.169 |
| TTAGATTTCAGGATCGATTAGTGCTAG | 1.3 |
| GACGGTATCCATTTCCTGACGTGCTAG | 0.292 |
| TCACCTTGAGGTTTTCTCACTGTGCTA | 0.194 |
| TTAGATATCGGCACTGGATTAGTGCTA | 1.47 |
| GGGCCCTGCTGGGAAGTCAGGTGCTAG | -0.891 |
| GACGGTTTCGGGACTGGGGCCGTGCTA | 4.43 |
| GACGGTTTCGGTCTCCGGACGTGCTAG | 9.57 |
| TTAGGTTTCGACGTTCGGTTAGTGCTA | 6.15 |
| GACGAACTGAGTATCGAGATGTGCTAG | 1.97 |
| TTAGAACTGGGGGCTGGATTAGTGCTA | 0.706 |
| TCATGTTTTTCATTGTTACTGTGCTAG | 1.53 |
| ACTCCTGTACATCTATGTAGGTGCTAG | -0.0935 |
| GGCGAACTGAGTTTCGAGACGTGCTAG | 4.89 |

Set 4 — technique: protein binding microarray; molecule type: double-stranded DNA, one strand shown; matrix: in vitro; concentration: not given; reference: not given; reading: higher = stronger binding
Target: Histone acetyltransferase KAT6A, winged helix 2, GST fusion (KAT6A, Homo sapiens, UniProt Q92794, residues 85-181)
Notes: 8-mer, flanks averaged, mean of 2 arrays, mostly near background
Construct (chain): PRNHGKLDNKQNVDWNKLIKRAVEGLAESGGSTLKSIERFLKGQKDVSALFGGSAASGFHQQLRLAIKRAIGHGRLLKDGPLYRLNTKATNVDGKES
| Oligonucleotide | E-score |
| --- | --- |
| AATCATCT | -0.167 |
| ATCCCCCG | 0.0659 |
| CAGTGTGA | -0.0101 |
| ACACGAAG | 0.0144 |
| CCGTCGTA | -0.064 |
| CTTGTAAC | 0.0868 |
| CCACGGGA | 0.0631 |
| AGGATGTG | -0.0591 |
| CGAGAGGA | 0.0203 |
| CAATGCAA | -0.016 |
| ATCCCGTA | -0.00961 |
| GACCTAAA | 0.0396 |
| ATTGATTA | 0.0598 |
| ACGGGCGC | 0.232 |
| GAGACTAC | -0.142 |
| AATGCCTG | -0.133 |
| CGGTGGCA | -0.0226 |
| CGATTGTC | 0.115 |
| CTTGCCAA | -0.00128 |

Set 5 — technique: universal PBM; molecule type: double-stranded DNA, one strand shown; matrix: in vitro; concentration: 600 nM; reading: higher = stronger binding
Target: Sal-like protein 4, full length isoform A (SALL4, Homo sapiens, UniProt Q9UJQ4, residues 1-1053)
Chain of UniProt Q9UJQ4 (whole entry, looked up): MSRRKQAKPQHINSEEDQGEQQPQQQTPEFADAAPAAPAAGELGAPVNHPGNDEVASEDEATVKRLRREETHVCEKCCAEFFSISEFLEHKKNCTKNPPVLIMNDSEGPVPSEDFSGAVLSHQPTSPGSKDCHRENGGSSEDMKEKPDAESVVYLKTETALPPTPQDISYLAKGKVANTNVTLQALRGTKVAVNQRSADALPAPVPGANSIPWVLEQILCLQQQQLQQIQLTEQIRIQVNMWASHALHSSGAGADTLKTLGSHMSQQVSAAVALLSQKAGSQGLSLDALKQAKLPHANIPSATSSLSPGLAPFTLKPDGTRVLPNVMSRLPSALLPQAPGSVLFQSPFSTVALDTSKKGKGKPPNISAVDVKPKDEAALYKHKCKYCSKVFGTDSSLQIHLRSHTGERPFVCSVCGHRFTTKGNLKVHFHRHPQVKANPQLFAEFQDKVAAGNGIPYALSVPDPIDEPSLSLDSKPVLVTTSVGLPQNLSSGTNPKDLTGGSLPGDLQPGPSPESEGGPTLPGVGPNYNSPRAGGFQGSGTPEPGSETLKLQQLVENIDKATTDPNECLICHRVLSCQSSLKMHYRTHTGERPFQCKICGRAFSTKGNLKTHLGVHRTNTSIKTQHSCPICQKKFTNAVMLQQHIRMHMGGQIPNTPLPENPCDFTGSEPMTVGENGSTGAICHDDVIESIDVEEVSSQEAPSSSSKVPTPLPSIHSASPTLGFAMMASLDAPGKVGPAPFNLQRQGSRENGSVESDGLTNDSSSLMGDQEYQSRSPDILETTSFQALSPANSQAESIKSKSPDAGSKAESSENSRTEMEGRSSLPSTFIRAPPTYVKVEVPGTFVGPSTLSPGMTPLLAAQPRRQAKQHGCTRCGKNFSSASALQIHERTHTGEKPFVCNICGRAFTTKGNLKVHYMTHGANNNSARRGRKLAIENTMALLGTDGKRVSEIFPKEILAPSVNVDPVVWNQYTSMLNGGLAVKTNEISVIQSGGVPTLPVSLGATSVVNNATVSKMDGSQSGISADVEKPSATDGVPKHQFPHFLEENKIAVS
Notes: 8-mer, flanks averaged, mean of replicates
| Oligonucleotide | E-score |
| --- | --- |
| CCTGTTGA | 0.0697 |
| CCTGGGCG | -0.33 |
| GTCCGCAC | -0.177 |
| GTGACTCA | -0.0964 |
| AAGTGGGT | -0.0983 |
| TGTTTAAA | 0.164 |
| GCAGTTGA | -0.153 |
| AAGCCTCA | -0.225 |
| ACTCGTTG | 0.102 |
| GGTGTACA | 0.0567 |
| CGACTCGA | -0.147 |
| GCATAGAC | -0.0616 |
| ACACTCCT | 0.00711 |
| CCATTCTA | 0.0763 |
| GATGCTAA | -0.0378 |
| CGCTACCC | -0.228 |
| AATGATCA | 0.257 |
| TAAGGAGA | 0.0268 |
| ACTGGACG | -0.153 |
| ACACATGC | -0.0773 |
| ACGAATAA | 0.26 |

Some of these lines once more (set 1):
| Oligonucleotide | RBNS enrichment (R) |
| --- | --- |
| AUCUGGUCAAGUGGCGGGCCUUACUCUGGAAGGAGGCCUCAGAGGUUUCUCCACAGUCCUCUUCUGGGCAAAUUCUUGUUUCUUCACAUGCUGGACUAGCUUAAGACCAA | 0.181 |
| AAAGAAUAAAAAUUGACUUCUUGCUUGUACAUAUAGGAGCAAUACUAUUAUAUUAUGUAGUCCGUUAACACUACUUAAAAGUUUAGGGUUUUCUCUUGGUUGUAGAGUGG | 2.53 |
| UUAACACAGCCUUCCUUCUGCUCCCACCCCAGAAAUCACUGUGAAAUUUCAUGAUUGGCUUAAAGUGAAGGAAAUAAAGGUAAAAUCACUUCAGAUCUCUAAUUAGUCUA | 0.349 |
| AAGGCCACACCACUUCCGCUGUGUAUCAGUCUAUCAUACACUCCGCACGGUCACAUGAUCACUUCACUUCUCGAUGGCUAUUGCAGACCAAGACUGCAGUCAAGAAGGGA | 0.282 |
| UCUCAUGAAUAUUCUUUAAGUGCUAUUUAAACCUCCCCAGCACUUAGAUGCAUAUAAUGGACUUACCUGAGGAAAGACAGCACAUAGGCAUGGGGAGAGGUAACCAAGGU | 0.724 |
| AUUUGUUUUAAGAGAUAGAACUCUAUUUUUUUGAACUUCCAGAGAAUUGCAUUCAUGGCUUCCACUUGUAAAUAUGCUAAGGGUAUUUUAAUAAAUCUUGGUUUCAUGUC | 0.634 |
| CAGCAGCUCAUCGACGACCACUUCCUCUUCGACAAGCCCGUGUCGCCCCUGCUGCUGGCCUCGGGCAUGGCCCGCGACUGGCCCGACGCCCGCGGUAUCUGGCACAAUGA | 0.343 |
| CACAGUGUCAGAGACGCGUCCUCUUUCUUGGGGAAGUUGAGGAGUGCCCUUCAGAGCCAGUAGCAGGCAGGGGUGGGUAGGCACCCUCCUUCCUGUUUUUAUCUAAUAAA | 0.577 |
| GCUUCAAACUGUUUUAAUCAUCAAACCAAGUCACUGUUCAUUUUCAUCUUCUUGUACAGUUUUUGUUUGGGUAAUGAUCACAGCAAUCCUUACACAUUUUAUGUAAACUC | 0.349 |
| GGGGCCUGGCAGCCAUGGAGAAGGCUGAGAGGCAGAAGGACACGGGGUCUUCCUGCCUCACCACCUUGCUGUGCAUGAUGAUGCUGACCCACCCCCUUUACCUCCCUUCC | 5.48 |
| UUUUUCACUAAGAAUUUAGUUAAAUUGUCUUUACUAUACAGCAAGAAAUCUCUUUAGAAGAAACUUUAUGAGUUUAUAAAUGAGAAAACCUUUCAGCAGUUAUGUAGCCU | 0.428 |
